Experimental data pooled from the literature.
Each line is one published result; not all experiments were run side by side. ± gives the spread as reported.
Cell line: MCF7

| SMILES | test | test system | conditions | IC50 |
| --- | --- | --- | --- | --- |
| O=C(CSc1nc(-c2ccccc2)n[nH]1)N1CCC(=C2c3ncccc3CCc3cc(Cl)cc(Br)c32)CC1 | cell growth or viability, SRB | – | – | 80 µM |
| CCn1c(-c2ccccc2)cs/c1=N/N=C(\C)c1c(O)c2ccccc2oc1=O | cell growth or viability, MTT | – | 48 h | 25.9 µM |
| CC(=O)N1N=C(C)CC1c1ccccc1 (stereo not drawn) | cell growth or viability, LDH | – | – | 6.2 µM |
| CC(=NNC(=S)NN=C(C(=NO)c1ccccc1)c1ccccc1)c1ccccc1 | cell growth or viability, MTT | – | 48 h | 32.8 µM |
| C[C@]12CC/C(=N\OCCN3CCOCC3)C=C1CCC1C2CC[C@]2(C)/C(=C/c3ccccn3)CCC12 (stereo partly drawn) | cell growth or viability, MTT | – | 72 h | > 100 µM |
| COc1ccc(Cn2cc(COc3c(OC)ccc4cc5[n+](cc34)CCc3cc4c(cc3-5)OCO4)nn2)cc1 | cell growth or viability, MTT | – | – | 46.7 µM |
| COc1c(O)cc2oc3cc4c(c(O)c3c(=O)c2c1CC=C(C)C)C=CC(C)(C)O4 | cell growth or viability | – | 48 h | 16.8 µM |
| NS(=O)(=O)c1ccc(/N=N/c2ccc(O)c(/C=N/c3cc([N+](=O)[O-])ccc3O)c2)cc1 | cell growth or viability, MTT | – | 48 h | 9.28 µM |
| C/C(=N\N=c1\sc(/N=N/c2ccc([N+](=O)[O-])cc2[N+](=O)[O-])c(C)n1C)c1c(O)c2ccccc2oc1=O | cell growth or viability, LDH | – | 48 h | 3 µM |
| CC(=O)OC[C@H]1O[C@@H](n2nc(-c3cc4ccccc4[nH]3)n(-c3ccc(Cl)cc3)c2=S)[C@H](OC(C)=O)[C@@H](OC(C)=O)[C@@H]1OC(C)=O | cell growth or viability, MTT | – | – | 17.3 µM |
| Clc1ccc2ccc3[n+](c2c1)[Ir-3]12([c]4ccccc4-3)([c]3ccccc3-c3ccc4ccc(Cl)cc4[n+]31)[n+]1ccccc1-c1cccc[n+]12.F[P-](F)(F)(F)(F)F | cell growth, MTT | – | 72 h | 0.68 ± 0.13 µM |
| CCCCCCCCCCCCCCCOC(=O)/C=C/c1ccc(OC)cc1 | cell viability, MTT | – | 48 h, serum-free medium | 2.9 ± 0.4 µg/mL |
| CC(C)=CCCC(C)(O)C1CCC2(C)C1C(O)CC1C3(C)CCC(OC4OC(COC(=O)CCCCCN5C(=O)C=CC5=O)C(O)C(OC(=O)CCCCCN5C(=O)C=CC5=O)C4O)C(C)(C)C3CCC12C (stereo not drawn) | cell growth or viability, MTT | – | – | 29.8 µM |
| C=C(C)[C@@H]1CC[C@]2(C(=O)OCO/N=[N+](\[O-])N3CCCC3)CC[C@]3(C)[C@H](CC[C@@H]4[C@@]5(C)CC[C@H](OC(C)=O)C(C)(C)[C@@H]5CC[C@]43C)[C@@H]12 | cell growth or viability, MTT | – | 72 h | 0.92 µM |
| C=C(C)[C@H]1CC[C@@]2(C)CC[C@]3(C)C[C@H]4[C@@H](C)CC[C@H]4/C(C)=C\C[C@H]3[C@H]12 | cell growth or viability, MTT | – | 72 h | > 500 µM |
| CCC(C(=O)O)C1CCC(C)C(C(C)C(O)C(C)C(=O)C(CC)C2OC3(C=CC(NCc4cn(-c5ccc(C(C)=O)cc5)nn4)C4(CCC(C)(C5CCC(O)(CC)C(C)O5)O4)O3)C(C)CC2C)O1 (stereo not drawn) | cell growth or viability, resazurin | – | 72 h | 0.43 µM |
| CC(=NN=c1sc(C(=O)c2ccccc2)nn1-c1ccccc1)c1ccc(S(=O)(=O)N2CCC(C)CC2)cc1 | cell growth, MTT | – | – | 3.3 to 4.3 µM |
| COc1cc(-c2ccc(C(=O)N/N=C/c3ccc(N(C)C)cc3)c(C)n2)cc(OC)c1OC | cell growth or viability, MTT | – | – | 50.1 µM |
| COc1cc(C2COc3cc(O)cc(O)c3C2=NN)c(OC)cc1O (stereo not drawn) | cell growth or viability, MTT | – | 72 h | 166 µM |
| CSC(=NN=C(C)c1ccc(S(=O)(=O)N2CCC(C)CC2)cc1)N(C)C | cell growth or viability, MTT | – | – | 4.31 µM |
| CCOc1cccc(/C=N/c2ccccc2Nc2ccccc2)c1O | cell growth or viability, MTT | – | 48 h | 97.6 µM |
| Cc1ccc(C(C)C)cc1.Cl.[Cl][Ru+].[Ru+].c1ccc(-c2cn(CCCCOc3ccccc3-c3nc4ccccc4s3)nn2)nc1 | cytotoxicity, MTT | – | 48 h | 7.85 ± 3.09 µM |
| CCCC/C=N/NC(=O)c1cc2cc(Nc3nccc(-c4cccnc4)n3)ccc2[nH]1 | cell growth or viability, MTT | – | 48 h | > 20 µM |
| S=c1[nH]c(=S)c2sc3sc4c(=S)[nH]c(=S)[nH]c4c3c2[nH]1 | cell growth or viability, MTT | – | – | 9.26 µM |
| CCCCCCCCn1c(-c2cccnc2)nc(-c2ccc(C)cc2)c1-c1ccc(C)cc1 | cell growth or viability, SRB | – | 24 h | 92.1 µM |
| CC(C)=CCC1=C([O-])C(=O)c2ccccc2C1=O.CC(C)=CCC1=C([O-])C(=O)c2ccccc2C1=O.Cc1cc2cccnc2c2ncccc12.[Cu+2] | cell viability, MTT | – | 24 h | 2.6 ± 0.1 µM |
| CC(C)(O)[C@@H]1CC[C@](C)([C@H]2CC[C@]3(C)[C@@H]2CC[C@@H]2[C@@]4(C)CCC(=O)C(C)(C)[C@@H]4CC[C@]23C)O1 | cell growth or viability, SRB | – | – | > 100 µM |

| SMILES | test | test system | conditions | IC50 |
| --- | --- | --- | --- | --- |
| Cc1ccc(S(=O)(=O)[O][Re-2]2(=[C]=O)(=[C]=O)(=[C]=O)[n+]3ccc(-c4ccccc4)c4ccc5c(-c6ccccc6)cc[n+]2c5c43)cc1 | cell growth or viability, resazurin | – | 72 h | 1.27 µM |
| COc1ccc(CNC[C@@](O)(COCc2ccccc2)[C@@H]2CC[C@@H](C)C[C@H]2OCc2ccccc2)cc1 | cell growth or viability, MTT | – | 72 h | 2.1 µM |
| CCCCCCCCCCCCCCOc1c(O)cc(C(=O)O[C@@H]2Cc3c(O)cc(O)cc3O[C@@H]2c2cc(O)c(O)c(O)c2)cc1O | cell growth or viability, CCK-8 | – | 24 h | 41.7 µM |
| COc1ccc(S(=O)(=O)Nc2ccc(CCCC(=O)O[C@H]3c4cc5c(cc4[C@@H](c4cc(OC)c(OC)c(OC)c4)[C@H]4C(=O)OC[C@@H]43)OCO5)cc2)cc1 | cell growth or viability, CCK-8 | – | 24 h | 91 µM |
| COC(=O)CNc1cc(C[S+]([O-])c2ccc3cc(Br)ccc3c2)ccc1OC (stereo not drawn) | cell growth or viability, MTS | – | 48 h | 1.73 µM |
| COc1ccc(NC(=O)N/N=C2\CC3(CCN(C)CC3)Oc3ccccc32)cc1 | cell growth or viability, MTT | – | 48 h | 6.67 µM |
| NC1CCCCC1N.O=C(CCCc1ccccc1)[O][Pt]1([O]C(=O)CCCc2ccccc2)[O]C(=O)C(=O)[O]1 | cytotoxicity | – | 72 h | 2.28 ± 0.46 µM |
| O=C(NCCCNc1n[n+]([O-])c2ccccc2[n+]1[O-])C(F)(F)F | cytotoxicity, MTT | 10% FBS medium | 6 h + 18 h, hypoxia 3% O2 | 29.1 ± 13.5 µM |
| C=CC(OC(C)=O)c1cc(OC)c(OC(C)=O)c(OC)c1 (stereo not drawn) | MTT | – | 24 h | > 50 µM |
| CCCCCCCCCCCCCCCOC(=O)/C=C/c1ccc(OC)c(OC)c1 | cell viability, MTT | – | 48 h, serum-free medium | 3.2 ± 0.3 µg/mL |
| c1ccc(-c2cc(-c3ccc(-n4cc(-c5ccc6sc7ccccc7c6c5)nn4)cc3)cc(-c3ccccn3)n2)nc1 | cell growth or viability, MTS | – | 72 h | 1.73 µM |
| FC(F)(F)c1c(-c2ccc(Br)cc2)noc1-c1cccs1 | cell growth or viability, MTT | – | 48 h | 24.8 µM |
| Nc1ncnc2c1C(c1cccs1)C1=C(CCCC1=O)O2 (stereo not drawn) | cell growth or viability, MTT | – | 72 h | 45.6 µM |
| COc1ccc(NC(=O)CCc2nc3cc(Cl)ccc3[nH]c2=O)cc1 | cell growth or viability, MTT | – | – | 4.61 µM |
| CSc1nc(Nc2ccc(/C(C)=N/NC(=O)c3ccccc3)cc2)c(C#N)c(-c2ccccc2)n1 | cell growth or viability, MTT | – | 48 h | 32.2 µM |
| CCOC(=O)C1=C(COCc2cn(CCN3C(=O)C(=O)c4cc(Cl)ccc43)nn2)N=C2Sc3ccccc3N2C1c1cccc(Cl)c1 (stereo not drawn) | cell growth or viability, MTT | – | – | > 100 µM |
| C=C1C(=O)OC2C1CCC1(C)CC1CCC1(C)OC21 (stereo not drawn) | cell growth or viability, resazurin | – | – | 14.1 µM |
| COC(Cn1ccn(C)[c]1=[Ag][O]C(C)=O)c1ccccc1 (stereo not drawn) | cell growth or viability, MTT | – | 72 h | 30.7 µM |
| COc1cccc2cc(C(=O)NNC(N)=S)c(=O)oc12 | cell growth or viability, SRB | – | 72 h | 21.8 µM |
| COc1ccc2cc3[n+](cc2c1OCc1cn(Cc2ccc(Cl)cc2F)nn1)CCc1cc2c(cc1-3)OCO2 | cell growth or viability, MTT | – | – | 150 µM |
| CC(C)C[C@@H]1NC(=O)[C@H](Cc2c[nH]c3ccccc23)NC(=O)CNC(=O)[C@@H]2CCCN2C(=O)[C@H]2CCCN2C(=O)[C@H]([C@@H](C)O)NC1=O | cell growth or viability, ATP luminescence | – | 72 h | > 100 µM |
| Cc1nc([N+](=O)[O-])c(N2CCNCC2)n1Cc1ccccc1 | cell growth or viability, MTT | – | 72 h | 85 µM |
| CCCCn1c(-c2cccnc2)nc(-c2ccc(C)cc2)c1-c1ccc(C)cc1 | cell growth or viability, SRB | – | 24 h | 81.7 µM |
| CC(C)c1cccc(C(C)C)c1-n1c(Cl)c(Cl)n(-c2c(C(C)C)cccc2C(C)C)c1=[Se].[Cl][Au] | cell growth or viability, MTT | – | 72 h | 8.2 µM |
| C[C@@H]1CC[C@@H]([C@@](O)(COCc2ccccc2)Cn2cnc3ccccc32)[C@H](OCc2ccccc2)C1 | cell growth or viability, MTT | – | 72 h | 7.5 µM |
| O=C(NCCCCNc1n[n+]([O-])c2ccccc2[n+]1[O-])C(F)(F)F | cytotoxicity, MTT | – | 24 h, normoxia | > 116 µM |
| FC(F)(F)C1(c2ccc(CN3CCN(C(c4ccccc4)c4ccc(Cl)cc4)CC3)cc2)CCC1 (stereo not drawn) | cell growth | – | 72 h | 102 µM |

Some of these lines once more:
| SMILES | test | test system | conditions | IC50 |
| --- | --- | --- | --- | --- |
| FC(F)(F)c1c(-c2ccc(Br)cc2)noc1-c1cccs1 | cell growth or viability, MTT | – | 48 h | 24.8 µM |
| COc1ccc(NC(=O)CCc2nc3cc(Cl)ccc3[nH]c2=O)cc1 | cell growth or viability, MTT | – | – | 4.61 µM |
| C/C(=N\N=c1\sc(/N=N/c2ccc([N+](=O)[O-])cc2[N+](=O)[O-])c(C)n1C)c1c(O)c2ccccc2oc1=O | cell growth or viability, LDH | – | 48 h | 3 µM |
| CC(C)C[C@@H]1NC(=O)[C@H](Cc2c[nH]c3ccccc23)NC(=O)CNC(=O)[C@@H]2CCCN2C(=O)[C@H]2CCCN2C(=O)[C@H]([C@@H](C)O)NC1=O | cell growth or viability, ATP luminescence | – | 72 h | > 100 µM |
| COc1cccc2cc(C(=O)NNC(N)=S)c(=O)oc12 | cell growth or viability, SRB | – | 72 h | 21.8 µM |
| COC(Cn1ccn(C)[c]1=[Ag][O]C(C)=O)c1ccccc1 (stereo not drawn) | cell growth or viability, MTT | – | 72 h | 30.7 µM |
